Assay results collected from several papers.
Compare with care: the assays were run in different laboratories.
Organism: Pseudomonas aeruginosa

| SMILES | test | system | setting | quantity | value |
| --- | --- | --- | --- | --- | --- |
| CCCCCC(=O)NCC(=O)N[C@@H](CC(C)C)C(=O)N[C@@H](CC(C)C)C(=O)N[C@@H](CCCCN)C(=O)N[C@@H](CCCNC(=N)N)C(=O)N[C@H](C(=O)N[C@@H](CCCCN)C(=O)N[C@H](C(=O)N[C@@H](CC(C)C)C(=O)N[C@@H](CC(C)C)C(=O)NCCCC[C@H](NC(=O)[C@H](CC(C)C)NC(=O)[C@H](CC(C)C)NC(=O)[C@@H](NC(=O)[C@H](CCCCN)NC(=O)[C@@H](NC(=O)[C@H](CCCNC(=N)N)NC(=O)[C@H](CCCCN)NC(=O)[C@H](CC(C)C)NC(=O)[C@H](CC(C)C)NC(=O)CNC(=O)CCCCC)[C@@H](C)CC)[C@@H](C)O)C(N)=O)[C@@H](C)O)[C@@H](C)CC | checkerboard | ATCC 27853 | added: rifampicin | FIC index | 0.375 |
| CC[C@H](C)[C@H](NC(=O)[C@H](Cc1c[nH]cn1)NC(=O)[C@H](CCCCNC(=O)[C@@H](NC(=O)[C@H](CCCCN)NC(=O)[C@H](Cc1ccccc1)NC(=O)[C@H](CCCCNC(=O)[C@H](CC(C)C)NC(=O)[C@@H]1CCCN1C(=O)[C@H](CCCCN)NC(=O)C[C@@H]1O[C@@H](C)[C@@H](O)[C@@H](O)[C@@H]1O)NC(=O)[C@H](CC(C)C)NC(=O)[C@@H]1CCCN1C(=O)[C@H](CCCCN)NC(=O)C[C@@H]1O[C@@H](C)[C@@H](O)[C@@H](O)[C@@H]1O)[C@@H](C)CC)NC(=O)[C@@H](NC(=O)[C@H](CCCCN)NC(=O)[C@H](Cc1ccccc1)NC(=O)[C@H](CCCCNC(=O)[C@H](CC(C)C)NC(=O)[C@@H]1CCCN1C(=O)[C@H](CCCCN)NC(=O)C[C@@H]1O[C@@H](C)[C@@H](O)[C@@H](O)[C@@H]1O)NC(=O)[C@H](CC(C)C)NC(=O)[C@@H]1CCCN1C(=O)[C@H](CCCCN)NC(=O)C[C@@H]1O[C@@H](C)[C@@H](O)[C@@H](O)[C@@H]1O)[C@@H](C)CC)C(N)=O | – | PAO1 | biofilm-forming conditions | MBC | > 30 µM |
| CC[C@H](C)[C@H](NC(=O)[C@H](CCCCN)NC(=O)[C@H](CCCCN)NC(=O)[C@H](CC(C)C)NC(=O)[C@H](CCCCN)NC(=O)[C@H](CCC(=O)O)NC(=O)[C@H](CCCCN)NC(=O)[C@@H](NC(=O)[C@H](CCCCN)NC(=O)[C@H](CC(N)=O)NC(=O)[C@H](CCCNC(=N)N)NC(=O)[C@H](Cc1ccccc1)NC(=O)[C@H](CCCCN)NC(=O)[C@H](CCCNC(=N)N)NC(=O)[C@H](CC(C)C)NC(=O)[C@H](CCCNC(=N)N)NC(=O)[C@H](CCCCN)NC(=O)[C@H](CCCNC(=N)N)NC(=O)[C@H](CC(C)C)NC(=O)CN)[C@@H](C)CC)C(=O)NCC(=O)N[C@@H](CCC(N)=O)C(=O)N[C@@H](CCCCN)C(=O)N[C@H](C(=O)N[C@@H](CCC(N)=O)C(=O)NCC(=O)N[C@@H](Cc1ccccc1)C(=O)N[C@H](C(=O)N1CCC[C@H]1C(=O)N[C@@H](CCCCN)C(=O)N[C@@H](CC(C)C)C(=O)N[C@@H](C)C(=O)N1CCC[C@H]1C(=O)N[C@@H](CCCNC(=N)N)C(=O)N[C@H](C(=O)N[C@@H](CC(=O)O)C(=O)N[C@@H](Cc1ccc(O)cc1)C(=O)O)[C@@H](C)O)C(C)C)[C@@H](C)CC | inhibition zone method | 14, LB 0.8% agar with 154 mM NaCl | overnight, 37 °C | lethal concentration | 2.04 µM |
| CC(C)C[C@H](NC(=O)[C@H](CCCCNC(=O)[C@H](CCCCN)NC(=O)[C@H](CC(C)C)NC(=O)[C@H](CCCCNC(=O)[C@H](CCCCN)NC(=O)[C@H](CC(C)C)NC(=O)[C@H](CCCCNC(=O)[C@H](CCCCN)NC(=O)[C@@H](N)CC(C)C)NC(=O)[C@H](CCCCN)NC(=O)[C@@H](N)CC(C)C)NC(=O)[C@H](CCCCN)NC(=O)[C@H](CC(C)C)NC(=O)[C@H](CCCCNC(=O)[C@H](CCCCN)NC(=O)[C@@H](N)CC(C)C)NC(=O)[C@H](CCCCN)NC(=O)[C@@H](N)CC(C)C)NC(=O)[C@H](CCCCN)NC(=O)[C@H](CC(C)C)NC(=O)[C@H](CCCCNC(=O)[C@H](CCCCN)NC(=O)[C@H](CC(C)C)NC(=O)[C@H](CCCCNC(=O)[C@H](CCCCN)NC(=O)[C@@H](N)CC(C)C)NC(=O)[C@H](CCCCN)NC(=O)[C@@H](N)CC(C)C)NC(=O)[C@H](CCCCN)NC(=O)[C@H](CC(C)C)NC(=O)[C@H](CCCCNC(=O)[C@H](CCCCN)NC(=O)[C@@H](N)CC(C)C)NC(=O)[C@H](CCCCN)NC(=O)[C@@H](N)CC(C)C)C(=O)N[C@@H](CCCCN)C(N)=O | biofilm formation | PAO1 | 24 h | MBIC | 6 µM |
| CC(C)C[C@@H]1NC(=O)[C@H](CCN)NC(=O)CSC[C@@H]2NC(=O)[C@H](CC(C)C)NC(=O)[C@H](CC(C)C)NC(=O)[C@H](CCN)NC(=O)[C@H](CCCCNC(=O)[C@H](CCN)NC1=O)NC(=O)[C@H](CCN)NC(=O)[C@H](CC(C)C)NC(=O)[C@H](CCN)NC(=O)CSC[C@@H](C(=O)N[C@@H](CCN)C(N)=O)NC(=O)[C@H](CC(C)C)NC(=O)[C@H](CC(C)C)NC(=O)[C@H](CC(C)C)NC2=O | – | PAO1 | 24 to 25 h | minimal biofilm inhibitory concentration | > 32 µg/mL |
| CC(C)C[C@H](NC(=O)[C@H](CCCCN)NC(=O)[C@H](CCCCNC(=O)[C@H](CC(C)C)NC(=O)[C@H](CCCCN)NC(=O)[C@H](CCCCNC(=O)[C@H](CC(C)C)NC(=O)[C@H](CCCCN)NC(=O)[C@H](CCCCNC(=O)[C@H](CC(C)C)NC(=O)[C@@H](N)CCCCN)NC(=O)[C@H](CC(C)C)NC(=O)[C@@H](N)CCCCN)NC(=O)[C@H](CC(C)C)NC(=O)[C@H](CCCCN)NC(=O)[C@H](CCCCNC(=O)[C@H](CC(C)C)NC(=O)[C@@H](N)CCCCN)NC(=O)[C@H](CC(C)C)NC(=O)[C@@H](N)CCCCN)NC(=O)[C@H](CC(C)C)NC(=O)[C@H](CCCCN)NC(=O)[C@H](CCCCNC(=O)[C@H](CC(C)C)NC(=O)[C@H](CCCCN)NC(=O)[C@H](CCCCNC(=O)[C@H](CC(C)C)NC(=O)[C@@H](N)CCCCN)NC(=O)[C@H](CC(C)C)NC(=O)[C@@H](N)CCCCN)NC(=O)[C@H](CC(C)C)NC(=O)[C@H](CCCCN)NC(=O)[C@H](CCCCNC(=O)[C@H](CC(C)C)NC(=O)[C@@H](N)CCCCN)NC(=O)[C@H](CC(C)C)NC(=O)[C@@H](N)CCCCN)C(N)=O | biofilm formation | PAO1 | 24 h, 37 °C | MBIC | 16 µg/mL |
| CC[C@H](C)[C@H](NC(=O)[C@H](CCCCN)NC(=O)[C@H](CCCCN)NC(=O)[C@H](CC(C)C)NC(=O)[C@H](CCCCN)NC(=O)[C@H](CCC(=O)O)NC(=O)[C@H](CCCCN)NC(=O)[C@@H](NC(=O)[C@H](CCCCN)NC(=O)[C@H](CC(N)=O)NC(=O)[C@H](CCCNC(=N)N)NC(=O)[C@H](Cc1ccccc1)NC(=O)[C@H](CCCCN)NC(=O)[C@H](CCCNC(=N)N)NC(=O)[C@H](CC(C)C)NC(=O)[C@H](CCCNC(=N)N)NC(=O)[C@H](CCCCN)NC(=O)[C@H](CCCNC(=N)N)NC(=O)[C@H](CC(C)C)NC(=O)[C@@H](N)CC(C)C)[C@@H](C)CC)C(=O)NCC(=O)N[C@@H](CCC(N)=O)C(=O)N[C@@H](CCCCN)C(=O)N[C@H](C(=O)N[C@@H](CCC(N)=O)C(=O)NCC(=O)N[C@@H](Cc1ccccc1)C(=O)N[C@H](C(=O)N1CCC[C@H]1C(=O)N[C@@H](CCCCN)C(=O)N[C@@H](CC(C)C)C(=O)N[C@H](C(=O)N1CCC[C@H]1C(=O)N[C@@H](CCCNC(=N)N)C(=O)N[C@H](C(=O)N[C@@H](CCC(=O)O)C(=O)N[C@@H](CO)C(=O)O)[C@@H](C)O)C(C)C)C(C)C)[C@@H](C)CC | inhibition zone method | 11092304, LB 0.8% agar with 154 mM NaCl | overnight, 37 °C | lethal concentration | 2.67 µM |
| CN(C)S(=O)(=O)c1ccc(S(=O)(=O)N2CCC(n3c(=O)[nH]c4ccccc43)CC2)cc1 | survival under NO stress | CIP 27853 | 4 h, added: NOC-5 5 µM | IC50 | 94.2 µM |
| CC[C@H](C)[C@H](NC(=O)[C@H](CCCCN)NC(=O)[C@H](CCCCN)NC(=O)[C@H](CC(C)C)NC(=O)[C@H](CCCCN)NC(=O)[C@H](CCC(=O)O)NC(=O)[C@H](CCCCN)NC(=O)[C@@H](NC(=O)[C@H](CCCCN)NC(=O)[C@H](CC(N)=O)NC(=O)[C@H](CCCNC(=N)N)NC(=O)[C@H](Cc1ccccc1)NC(=O)[C@H](CCCCN)NC(=O)[C@H](CCCNC(=N)N)NC(=O)[C@H](CC(C)C)NC(=O)[C@H](CCCNC(=N)N)NC(=O)[C@H](CCCCN)NC(=O)[C@H](CCCNC(=N)N)NC(=O)[C@@H](N)CC(C)C)[C@@H](C)CC)C(=O)NCC(=O)N[C@@H](CCC(N)=O)C(=O)N[C@@H](CCCCN)C(=O)N[C@H](C(=O)N[C@@H](CCC(N)=O)C(=O)NCC(=O)N[C@@H](Cc1ccccc1)C(=O)N[C@H](C(=O)N1CCC[C@H]1C(=O)N[C@@H](CCCCN)C(=O)N[C@@H](CC(C)C)C(=O)O)C(C)C)[C@@H](C)CC | inhibition zone method | 11082616, LB 0.8% agar with 154 mM NaCl | overnight, 37 °C | lethal concentration | 3.54 µM |
| CN1CC(=O)N=C1N.C[C@H](CCC(=O)O)[C@H]1CC[C@H]2[C@@H]3[C@H](O)C[C@@H]4C[C@H](O)CC[C@]4(C)[C@H]3CC[C@]12C | – | TISTR357 | 1 mg per disc, 18 to 24 h, 37 °C | antibacterial activity | inactive |

Some of these lines once more:
| SMILES | test | system | setting | quantity | value |
| --- | --- | --- | --- | --- | --- |
| CC(C)C[C@H](NC(=O)[C@H](CCCCNC(=O)[C@H](CCCCN)NC(=O)[C@H](CC(C)C)NC(=O)[C@H](CCCCNC(=O)[C@H](CCCCN)NC(=O)[C@H](CC(C)C)NC(=O)[C@H](CCCCNC(=O)[C@H](CCCCN)NC(=O)[C@@H](N)CC(C)C)NC(=O)[C@H](CCCCN)NC(=O)[C@@H](N)CC(C)C)NC(=O)[C@H](CCCCN)NC(=O)[C@H](CC(C)C)NC(=O)[C@H](CCCCNC(=O)[C@H](CCCCN)NC(=O)[C@@H](N)CC(C)C)NC(=O)[C@H](CCCCN)NC(=O)[C@@H](N)CC(C)C)NC(=O)[C@H](CCCCN)NC(=O)[C@H](CC(C)C)NC(=O)[C@H](CCCCNC(=O)[C@H](CCCCN)NC(=O)[C@H](CC(C)C)NC(=O)[C@H](CCCCNC(=O)[C@H](CCCCN)NC(=O)[C@@H](N)CC(C)C)NC(=O)[C@H](CCCCN)NC(=O)[C@@H](N)CC(C)C)NC(=O)[C@H](CCCCN)NC(=O)[C@H](CC(C)C)NC(=O)[C@H](CCCCNC(=O)[C@H](CCCCN)NC(=O)[C@@H](N)CC(C)C)NC(=O)[C@H](CCCCN)NC(=O)[C@@H](N)CC(C)C)C(=O)N[C@@H](CCCCN)C(N)=O | biofilm formation | PAO1 | 24 h | MBIC | 6 µM |
